Measured values gathered from unrelated publications.
A part holds a random share of what one study measured.

Study 1
Target: Sal-like protein 4, full length isoform B (SALL4, Homo sapiens, UniProt Q9UJQ4-2, residues 1-616)
Method: universal PBM
Form: double-stranded DNA, one strand shown
Medium: in vitro
Tested at: not given
Notes: 8-mer, flanks averaged, mean of replicates
Direction: higher = stronger binding
Endpoint: E-score
GCTCCTCC: -0.257
GTGATTGA: 0.185
TCCTGACA: -0.0293
AAATACAG: 0.259
AAGTATGT: 0.27
AACTGCAC: 0.0875
GAAGCGTA: -0.11
ATAAGTGG: 0.227
CGTATTGC: 0.0283
ATAACGAC: 0.244
AATATGGC: 0.227
CTGTGGCC: -0.317
GTCGGAAA: 0.0412
AAATGACT: 0.225
ACAAGGCC: -0.101
AAAAAGGC: 0.153
GCTGTCTA: -0.104
ATCTCGAG: 0.0172
ATACAGTG: 0.174
ATGGTAAC: 0.176
CCGTCGGC: -0.402
CTGGTGCC: -0.273
ACATGTAC: 0.0877
ATTGGGAC: -0.0827
GGATAAAA: 0.186

Study 2
Target: RING finger protein unkempt homolog, zinc fingers 1-6, SBP tag (UNK, Homo sapiens, UniProt Q9C0B0, residues 30-357)
Sequence of UniProt Q9C0B0 (30-357, looked up): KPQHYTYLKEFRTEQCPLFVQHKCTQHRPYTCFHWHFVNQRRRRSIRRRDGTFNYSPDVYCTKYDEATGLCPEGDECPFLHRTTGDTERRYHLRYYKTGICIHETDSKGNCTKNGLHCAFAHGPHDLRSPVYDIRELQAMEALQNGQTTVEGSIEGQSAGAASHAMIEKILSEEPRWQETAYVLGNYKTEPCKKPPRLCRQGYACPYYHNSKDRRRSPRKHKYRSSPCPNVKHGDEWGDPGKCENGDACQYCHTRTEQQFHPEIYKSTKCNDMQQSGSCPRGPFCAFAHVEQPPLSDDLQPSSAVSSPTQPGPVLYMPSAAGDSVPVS
Method: RNA Bind-n-Seq
Form: RNA
Medium: in vitro
Tested at: 100 nM
Notes: RNA with constant flanks, vertebrate orthologous sites, ends assumed
Baseline: input RNA pool
Direction: higher = stronger binding
Endpoint: bound/input enrichment
Constant ends, left off below: GGGAGUUCUACAGUCCGACGAUC … CAACAGAGGAUUGAGCAUCA
AAUUUUUUAAAGUUUUUUAAUUUAAUUUUUCCUUUUGGGGGUAAAGUUUGCUCUACCAAAUAGUGAUCGUAACAAAUUGAUCUGUUUUGGAUGUUGCUAUAGUGACAUGCAGUUAUACAU: 0.376 ratio
GAAAUUCCCCAUUGUCACUGAGAACCACCAAAUCUGACUUUUACAUUUGGUCUCAGAAUUUAGGUUCCUGCCCCCCCCUUCCCCCCUUUUUUUUAAACAGUUUUCAAAAGUUCUUAAAGG: 0.494 ratio
UCCAGUCUUAUACUUAUGGUUGGCCUCAAAUCUGUUGCAUUUAUGACAAUGUAUUAUAUCUAGUUAAUUUGAGUUUAAUAUUUUUUAUUAGCCUGUAAAUAAAGAUGGCAUCUUCUACAU: 0.411 ratio
UUACAGUCAUUGAUGGACUCUAUUUUUUUAUUAUUACUUGGAACUUGGUCGUUUUUAUACUAGCAAGAUGUCUUGUUUUAAUUUGUGUUUUUUGGGGGGGAGGGAGUGAAUUUGCUCAUU: 1.53 ratio
AACCCCGAUUUUAGAUGUGAUACUUAGGCUUUCAUUCCAGUUUUUGGUUUUUGUCUUGUUUAGAUACCACUUUUAAAUUCUUGCAUUUUAGUAAGAAAGCUACCUUUUUAUGGAUGUUAG: 0.785 ratio
GCAAUGAAAAAGCAGCCCUUCUCCCAGCCCCCCUUUCACUAGGAGAUACAACCAUUACCAUAGAAGAGCAAUUAAACUCGAUAAAUUUAUCUUUUCAGGAUGAUCCAGACUCCAGUACCA: 1.13 ratio
GAAUUGAACAAAAACGUUUCCACUGGGUUUGGCCUGUAAGAAAAAAUGUACCCGAGCACAUAGAGCUUUUUAAUAGCACUAACCAAUGCCUUUUUAGAUGUAUUUUUGAUGUAUAUAUCU: 0.622 ratio
GUCCUUUCACGCUGUCCCUGGCCAGGGUCGAGGACCGGGUGUCUCACUGAGGACCUGCAUUUCAAACAGUUUUUUAAAUUGUCGUACAGGAAGAGAUGUGAGGAAAACAGCAUCUCAGAG: 0.399 ratio

Study 3
Target: Histone acetyltransferase KAT6A, winged helix 2, GST fusion (KAT6A, Homo sapiens, UniProt Q92794, residues 85-181)
Method: protein binding microarray
Form: double-stranded DNA, one strand shown
Medium: in vitro
Tested at: not given
Notes: 8-mer, flanks averaged, mean of 2 arrays, mostly near background
Baseline: not given
Direction: higher = stronger binding
Endpoint: E-score
Residues (chain): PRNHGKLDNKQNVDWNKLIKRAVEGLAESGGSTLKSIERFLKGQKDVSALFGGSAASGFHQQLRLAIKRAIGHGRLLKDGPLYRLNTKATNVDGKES
GGACCACA: 0.0521
AGCCCTGG: -0.141
AAATAGGT: -0.0844
CCCCAGTA: -0.134
GCCAGACA: 0.0311
ATTGATGA: -0.0767
AATAGTCT: -0.172
CGTCGCGA: 0.183
CGGACGCA: 0.177
GACGAATC: 0.104
AGTCTATA: -0.0542
TACAATGA: -0.222
ACTATCGA: -0.0813
CCTTACTC: 0.00217
ACATTACT: -0.118
CTCAGCAG: 0.0552
GACAAGAC: -0.0408
AAGTCTTA: -0.247
AAGTATAG: -0.28
GCCTACGC: 0.0773
AGGAAGAT: -0.114
AGAGCGAG: 0.124
TCTCCAAA: 0.0889
AGCACGCC: 0.0967
AGAGCTAT: -0.168

Study 4
Target: Prothrombin, mature alpha-thrombin (F2, Homo sapiens, UniProt P00734)
Method: aptamer microarray, sandwich
Form: DNA with 2'F-ANA
Medium: in vitro
Tested at: 200 nM
Notes: whole 15-mer aptamer, many near background
Together with: Cy3 exosite-II aptamer, 400 nM
Direction: higher = stronger binding
Endpoint: mean fluorescence intensity
Strand: GGTTGGTGTGGTTGG
2'F-ANA at 1 2 4 5 6 7 9 10 13: 49.3 a.u.
2'F-ANA at 5 7 8 9 10 12 13 15: 50.3 a.u.
2'F-ANA at 5 6 7 10 11 12 13 15: 67.8 a.u.
2'F-ANA at 1 2 3 10 11 12 14 15: 66 a.u.
2'F-ANA at 1 2 3 5 7 9 11 13 14: 62.9 a.u.
2'F-ANA at 1 2 3 4 5 6 8 12 13 15: 86.5 a.u.
2'F-ANA at 1 3 9 11 13 15: 199 a.u.
2'F-ANA at 1 2 5 9 10 11 13 14: 49.1 a.u.
2'F-ANA at 6 9 10: 147 a.u.
2'F-ANA at 4 7 8 11 13 15: 253 a.u.
2'F-ANA at 2 5 6 7 8 11 13 14: 44.3 a.u.
2'F-ANA at 2 5 6 9 10 11 14: 48.4 a.u.
2'F-ANA at 2 3 5 6 7 8 9 10 11 13 15: 52.6 a.u.
2'F-ANA at 1 3 8 12 13: 539 a.u.
2'F-ANA at 2 4 6 7 9 10 11 12: 103 a.u.
2'F-ANA at 1 2 4 5 6 8 9 10 14: 51.5 a.u.
2'F-ANA at 1 3 4 8 9 10 12 15: 78.9 a.u.
2'F-ANA at 3 7 10 11 14: 462 a.u.
2'F-ANA at 1 3 8 9 12 15: 605 a.u.
2'F-ANA at 1 2 5 7 9 11 13: 50.8 a.u.
2'F-ANA at 1 3 5 6 7 8 9 10 13 14 15: 44.7 a.u.
2'F-ANA at 1 4 6 7 9 10 11 12 13 14: 46.3 a.u.
2'F-ANA at 2 3 5 7 8 9 10 11 12 13 14 15: 58.2 a.u.

Repeated from above (study 1):
ATGGTAAC: 0.176
CTGTGGCC: -0.317
AAAAAGGC: 0.153
ATACAGTG: 0.174
GCTCCTCC: -0.257
ATCTCGAG: 0.0172
ATAAGTGG: 0.227
